Published values collected from several papers.
Lines come from different studies, so protocols differ. Values joined by “and” are separate records of one study, mostly repeats; a detail may differ. ± marks the error that the study gave.
MAOA: Amine oxidase [flavin-containing] A (MAOA, Homo sapiens, UniProt P21397)
Histone chaperone ASF1A: Histone chaperone ASF1A (Homo sapiens, UniProt Q9Y294)
Complement C3: Complement C3 (Homo sapiens, UniProt P01024)
lecA: PA-I galactophilic lectin (lecA, Pseudomonas aeruginosa, UniProt Q05097)
T1: RNA, hairpin (Homo sapiens); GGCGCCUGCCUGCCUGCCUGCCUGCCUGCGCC

SMILES	target	test	system	setting	how to read	measurement	value
CC[C@H](C)[C@H](NC(=O)[C@@H]1CSSC[C@H](NC(=O)[C@@H](NC(C)=O)[C@@H](C)CC)C(=O)N[C@@H](C(C)C)C(=O)N[C@@H](Cc2cn(C)c3ccccc23)C(=O)N[C@@H](CCC(N)=O)C(=O)N[C@@H](CC(=O)O)C(=O)N[C@@H](Cc2c[nH]c3ccccc23)C(=O)NCC(=O)N[C@@H](C)C(=O)N[C@@H](Cc2c[nH]cn2)C(=O)N[C@@H](CCCNC(=N)N)C(=O)N1)C(N)=O	Complement C3, C3b fragment (Homo sapiens, UniProt P01024)	SPR		25 °C	reference: [Trp(Me)4]-Ac-compstatin	relative KD	1.1
Cc1ccc(-c2c(/C=C(\C#N)C(=O)NC(C)C)n(CCCO)c3ncnc(N)c23)cc1	Ribosomal protein S6 kinase alpha-3, C-terminal kinase domain (Rps6ka3, Mus musculus, UniProt P18654)	kinetic trap, LC-MS		10 µM, added: 100 µM FMK trap		dissociation half-life	245 min
CC[C@H](C)[C@@H]1NC(=O)[C@H](Cc2ccc(O)cc2)NC(=O)[C@@H](N)Cc2cn(nn2)CCCC[C@@H](C(=O)N2CCC[C@H]2C(=O)N[C@@H](CC(C)C)C(=O)NCC(N)=O)NC(=O)[C@H](CC(N)=O)NC(=O)[C@H](CCC(N)=O)NC1=O	Oxytocin receptor (OXTR, Homo sapiens, UniProt P30559)	inositol phosphate, agonist	HEK293			Emax	19.8%
O=C1Nc2ccc(F)cc2/C1=N/N=C/c1cccc(OCc2ccccc2)c1	MAOA	enzyme activity, inhibitor		10 µM		remaining activity	35.9%
CC[C@H](C)[C@H](NC(=O)[C@H](CCCNC(=N)N)NC(=O)[C@H](CCCNC(=N)N)NC(=O)[C@H](C)NC(=O)[C@H](CC(C)C)NC(=O)[C@H](CCCNC(=N)N)NC(=O)[C@H](C)NC(=O)[C@H](Cc1c[nH]c2ccccc12)NC(=O)[C@H](CCCCN)NC(=O)[C@H](CCC(=O)O)NC(C)=O)C(=O)N[C@@H](C)C(=O)NCC(N)=O	Histone chaperone ASF1A	isothermal titration calorimetry		concentration not given, pH 7.5, 20 °C		binding stoichiometry	1.1 ± 0.2
COc1cc2c(cc1OC)C(c1ccc(F)cc1F)N(CCCOc1ccc(CCC(=O)O)cc1)CC2 (stereo not shown)	PPARA (Homo sapiens, UniProt Q07869)	TR-FRET competitive binding		500 pM to 100 µM		binding	no binding
c1ccc2c(NCCCCCCCCCCNc3ccnc4ccccc34)ccnc2c1	ADRA2A (Homo sapiens, UniProt P08913, W114A)				reference: W99A over wild type	affinity increase	1.7 fold
CC[C@H](C)[C@H](NC(=O)[C@@H]1CSSC[C@H](NC(=O)[C@@H](NC(C)=O)[C@@H](C)CC)C(=O)N[C@@H](C(C)C)C(=O)N[C@@H](Cc2cn(C)c3ccccc23)C(=O)N[C@@H](CCC(N)=O)C(=O)N[C@@H](CC(=O)O)C(=O)N[C@@H](Cc2c[nH]c3ccccc23)C(=O)N(C)CC(=O)N[C@@H](C)C(=O)N[C@@H](Cc2c[nH]cn2)C(=O)N[C@@H](CCCNC(=N)N)C(=O)N1)C(N)=O	Complement C3	ITC		concentration not given		ΔG of binding	-11.2 kcal/mol
CC[C@H](C)[C@H](NC(=O)[C@H](CCCNC(=N)N)NC(=O)NC[C@H](CCC(N)=O)NC(=O)NC[C@@H](NC(=O)NC[C@H](CCCNC(=N)N)NC(=O)NC[C@H](Cc1ccc2ccccc2c1)NC(=O)[C@H](CCCCN)NC(=O)[C@H](CCC(=O)O)NC(C)=O)C(c1ccccc1)c1ccccc1)C(=O)N[C@@H](C)C(N)=O	Histone chaperone ASF1A	isothermal titration calorimetry		concentration not given, pH 7.5, 20 °C		binding stoichiometry	1.2 ± 0.3
CC1(C)CCN(Cc2ccc(C(=O)NC[C@]3(O)CCCN(c4cc(NCc5ccccc5)ncn4)C3)c(O)c2)CC1	SMYD3 (Homo sapiens, UniProt Q9H7B4)	enzyme activity		10 µM, added: 1 µM SAM		remaining activity	88% and 92%
C#Cc1ccc(O[C@@H]2O[C@H](CO)[C@H](O)[C@H](O)[C@H]2O)cc1	lecA	ITC		concentration not given, 5% DMSO		binding stoichiometry	0.95 ± 0.01
NC[C@@H]1O[C@H](O[C@H]2[C@@H](O)[C@H](O[C@@H]3[C@@H](O)[C@H](N)C[C@H](N)[C@H]3O[C@H]3O[C@H](CN)[C@@H](O)[C@H](O)[C@H]3N)O[C@@H]2CO)[C@H](N)[C@@H](O)[C@@H]1O	poly(dA)·2poly(dT) triplex	ITC		concentration not given, pH 6.8, 5 °C, KCl 150 mM		binding enthalpy	-8.2 ± 0.04 kcal/mol
COC(=O)C1=Cc2ccccc2S1(=O)=O	Ubiquitin-conjugating enzyme E2 D2 (UBE2D2, Homo sapiens, UniProt P62837)			10 µM, 30 min, 37 °C		ubiquitin charging to E2	no effect
COCCOCCOc1cc(-c2cn([C@H]3[C@H](O)[C@@H](O)[C@H](n4cc(-c5ccc(O[C@@H]6O[C@H](CO)[C@H](O)[C@H](O)[C@H]6O)cc5)nn4)O[C@@H]3CO)nn2)c(OCCOCCOC)cc1-c1cn([C@H]2[C@H](O)[C@@H](O)[C@H](n3cc(-c4ccc(O[C@@H]5O[C@H](CO)[C@H](O)[C@H](O)[C@H]5O)cc4)nn3)O[C@@H]2CO)nn1	lecA	ITC		5% DMSO		–TΔS	0.4 ± 0.1 kcal/mol
CC[C@H](C)[C@H](NC(=O)[C@H](CO)NC(=O)[C@H](Cc1ccc(O)cc1)NC(=O)[C@H](CC(=O)O)NC(=O)[C@H](CO)NC(=O)[C@@H](NC(=O)[C@H](Cc1ccccc1)NC(=O)[C@@H](NC(=O)CNC(=O)[C@H](CCC(=O)O)NC(=O)[C@H](C)NC(=O)[C@@H](N)Cc1ccc(O)cc1)[C@@H](C)O)[C@@H](C)CC)C(=O)N[C@@H](C)C(=O)N[C@@H](CCSC)C(=O)N[C@@H](CC(=O)O)C(=O)N[C@@H](CCCCN)C(=O)N[C@H](C(=O)N[C@@H](CCCNC(=N)N)C(=O)N[C@@H](CCC(N)=O)C(=O)N[C@@H](CCC(N)=O)C(=O)N[C@@H](CC(=O)O)C(=O)N[C@@H](Cc1ccccc1)C(=O)N[C@H](C(=O)N[C@@H](CC(N)=O)C(=O)N[C@@H](Cc1c[nH]c2ccccc12)C(=O)N[C@@H](CC(C)C)C(=O)N[C@@H](CC(C)C)C(=O)N[C@@H](C)C(=O)N[C@@H](CCC(N)=O)C(=O)N[C@@H](CCCNC(=N)N)C(=O)NCC(=O)N[C@@H](CCCCN)C(=O)N[C@@H](CCCCN)C(=O)N[C@@H](CO)C(=O)N[C@@H](CC(=O)O)C(=O)N[C@@H](Cc1c[nH]c2ccccc12)C(=O)N[C@@H](CCCCN)C(=O)N[C@@H](Cc1c[nH]cn1)C(=O)N[C@@H](CC(N)=O)C(=O)N[C@H](C(=O)N[C@H](C(=O)N[C@@H](CCC(N)=O)C(=O)O)[C@@H](C)O)[C@@H](C)CC)C(C)C)[C@@H](C)CC	Gastric inhibitory polypeptide receptor (Rattus norvegicus, UniProt P43219)	cAMP, agonist	COS-7			Emax	120%
CC(=O)N1CCN(S(=O)(=O)c2ccc(C=O)cc2)CC1	YWHAG/RELA (Homo sapiens, UniProt P61981+Q04206)	14-3-3/p65 binding stabilisation, fluorescence anisotropy		1 mM, added: FITC-labelled bivalent p65 peptide	reference: DMSO control	stabilisation factor	3

SMILES	target	test	system	setting	how to read	measurement	value
COc1ccc2nc3cc(Cl)ccc3c(NCCCCc3c(N)nc(N)nc3N)c2c1	T1, RNA, hairpin (Homo sapiens)	MBNL1-RNA complex displacement, competitor, EMSA		apparent, no tRNA, added: MBNL1 350 nM		Ki	2500 nM
CCCCCCCC/C=C\CCCCCCCC(=O)NC(CO)CO	GPR119 (Homo sapiens, UniProt Q8TDV5)	agonist, β-arrestin recruitment			reference: oleoylethanolamide	maximal activation	~2 fold
O=C(c1ccc(SCCF)cc1)C1CCN(C2Cc3ccccc3CC2O)CC1 (single isomer, unassigned; (-))	SIGMAR1 (Cavia porcellus, UniProt Q60492)	radioligand competition		added: (+)-[3H]pentazocine	reference: Ki sigma-1 over Ki VAChT	selectivity ratio	13.4
O=C1c2ccc(O)cc2OC(c2ccc(O)cc2)C1C1C(=O)c2ccc(O)cc2OC1c1ccc(O)cc1 (stereo not shown)	laccase (Trametes versicolor)	substrate, Hill kinetic model		product formation		Hill coefficient	1.42
C=C1CCN2C(=O)COc3cccc(c3)C(CCc3ccc(OC)c(OC)c3)OC(=O)C3CCCCN3C(=O)C(=O)C(C)(C)COC(=O)C(CC)NC(=O)C2C1 (stereo not shown)	FKBP1A/MAPRE1 (Homo sapiens, UniProt P62942+Q15691)	FKBP12-MAPRE1 proximity, TR-FRET			reference: DMSO	Emax	93%
CC[C@H](C)[C@H](NC(=O)[C@@H](NC(=O)[C@H](CS)NC(=O)[C@H](CCSC)NC(C)=O)[C@@H](C)O)C(=O)N[C@@H](CC(=O)O)C(=O)N[C@@H](Cc1ccc(F)cc1)C(=O)N[C@@H](CC(=O)O)C(=O)N[C@@H](CCC(=O)O)C(=O)N[C@@H](Cc1ccc(O)cc1)C(=O)N[C@@H](CCCNC(=N)N)C(=O)N[C@@H](Cc1ccc(F)cc1)C(=O)N[C@@H](CCCNC(=N)N)C(=O)N[C@@H](CCCCN)C(=O)N[C@H](C(N)=O)[C@@H](C)O	human BRCA1 BRCT N1774A	fluorescence polarization		concentration not given, FAM-labelled compound	reference: wild-type BRCA1 BRCT, higher = weaker binding	binding affinity fold reduction	26 fold
Cc1ccc2ccc3ccc(C)nc3c2n1.Cc1ccc2ccc3ccc(C)nc3c2n1.O.[Cl-].[Cl-].[Cl-].[Yb+3]	Albumin (ALB, Bos taurus, UniProt P02769)	fluorescence quenching		290 K		ΔG°	-33.97 ± 0.06 kJ/mol
COc1cc(-c2ncn(/C=C\C(=O)OC(C)C)n2)cc(C(F)(F)F)c1	Exportin-1 (CRM1, Saccharomyces cerevisiae, UniProt P30822, del377-413/T539C)	binding to PKI NES, inhibitor, pull-down		10 µM		time to full inhibition	5 min
O=C(COCCc1ccccc1)N[C@@H](Cc1cn(CCNC(=O)c2ccc(S[C@@H]3O[C@H](CO)[C@H](O)[C@H](O)[C@H]3O)cc2)nn1)C(=O)NCCO	lecA	binding, isothermal titration calorimetry		25 °C		−TΔS	12 ± 0.4 kJ/mol
O=C(NCC1CO1)Oc1ccc([N+](=O)[O-])cc1 (racemic)	Epoxide hydrolase 1 (Ephx1, Rattus norvegicus, UniProt P07687)	substrate, absorbance		50 µM, pH 9.0, 37 °C, rat enzyme		signal to noise ratio	3
CC[C@H](C)[C@H](NC(C)=O)C(=O)N[C@H]1CSSC[C@@H](C(=O)N[C@H](C(N)=O)[C@@H](C)O)NC(=O)[C@H](CCCNC(=N)N)NC(=O)[C@H](Cc2c[nH]cn2)NC(=O)[C@H](C)NC(=O)CNC(=O)[C@H](Cc2c[nH]c3ccccc23)NC(=O)[C@H](CC(=O)O)NC(=O)[C@H](CCC(N)=O)NC(=O)[C@H](Cc2ccc(O)cc2)NC(=O)[C@H](C(C)C)NC1=O	Complement C3	ITC		25 °C	more negative = stronger binding	ΔG	-8.6 kcal/mol
CNc1ccccc1C(=O)O[C@H]1C[C@H](n2cnc3c(N)ncnc32)O[C@@H]1COP(=O)(O)OP(=O)(O)O	Unconventional myosin-Va (Gallus gallus, UniProt Q02440, D297C/G292C/I296C/S293C/V295G)	stopped-flow FRET, linear fit intercept		4 °C, added: EDTA 4 mM		dissociation rate constant	12.8 ± 0.41 s⁻¹
Cc1cc(Nc2cc(CN(C)C)cc(NC(=O)c3cccc(Nc4ccnc5ccccc45)c3)c2)nc(N)n1	DNA polymerase eta (POLH, Homo sapiens, UniProt Q9Y253)	dATP incorporation		15 µM		kcat	5 min⁻¹
Clc1ccc2ccc3[n+](c2c1)[Ir-3]12([c]4ccccc4-3)([c]3ccccc3-c3ccc4ccc(Cl)cc4[n+]31)[n+]1ccccc1-c1cccc[n+]12.F[P-](F)(F)(F)(F)F	CDK9 (Homo sapiens, UniProt P50750)	CETSA	MDA-MB-231 lysate	3 µM, 30 min		melting temperature	60 °C
C#CCCCOc1ccc(CN(C)CC#C)cc1	MAOA	in situ probe labelling, LC-MS/MS	SH-SY5Y	unit not given	reference: DMSO	enrichment	81

Excerpt of the above:
SMILES	target	test	system	setting	how to read	measurement	value
CC[C@H](C)[C@H](NC(C)=O)C(=O)N[C@H]1CSSC[C@@H](C(=O)N[C@H](C(N)=O)[C@@H](C)O)NC(=O)[C@H](CCCNC(=N)N)NC(=O)[C@H](Cc2c[nH]cn2)NC(=O)[C@H](C)NC(=O)CNC(=O)[C@H](Cc2c[nH]c3ccccc23)NC(=O)[C@H](CC(=O)O)NC(=O)[C@H](CCC(N)=O)NC(=O)[C@H](Cc2ccc(O)cc2)NC(=O)[C@H](C(C)C)NC1=O	Complement C3	ITC		25 °C	more negative = stronger binding	ΔG	-8.6 kcal/mol
CNc1ccccc1C(=O)O[C@H]1C[C@H](n2cnc3c(N)ncnc32)O[C@@H]1COP(=O)(O)OP(=O)(O)O	Unconventional myosin-Va (Gallus gallus, UniProt Q02440, D297C/G292C/I296C/S293C/V295G)	stopped-flow FRET, linear fit intercept		4 °C, added: EDTA 4 mM		dissociation rate constant	12.8 ± 0.41 s⁻¹
Cc1cc(Nc2cc(CN(C)C)cc(NC(=O)c3cccc(Nc4ccnc5ccccc45)c3)c2)nc(N)n1	DNA polymerase eta (POLH, Homo sapiens, UniProt Q9Y253)	dATP incorporation		15 µM		kcat	5 min⁻¹
Clc1ccc2ccc3[n+](c2c1)[Ir-3]12([c]4ccccc4-3)([c]3ccccc3-c3ccc4ccc(Cl)cc4[n+]31)[n+]1ccccc1-c1cccc[n+]12.F[P-](F)(F)(F)(F)F	CDK9 (Homo sapiens, UniProt P50750)	CETSA	MDA-MB-231 lysate	3 µM, 30 min		melting temperature	60 °C
C#CCCCOc1ccc(CN(C)CC#C)cc1	MAOA	in situ probe labelling, LC-MS/MS	SH-SY5Y	unit not given	reference: DMSO	enrichment	81
